# Results from different studies.
# Numbered parts are unrelated; each lists some results of a single study. Changes are numbered by the printed parent chain.

# Study 1
# Target: CCNA1, cyclin fold, Cln2 fusion (human)
# Technique: yeast growth competition, sequencing
# Matrix: yeast
# Setting: weak parent motif
# Relative to: not given
# Reading: higher = stronger binding
# Starting sequence: CENPC docking peptide (human); VKTKKRLNFDDKV; partner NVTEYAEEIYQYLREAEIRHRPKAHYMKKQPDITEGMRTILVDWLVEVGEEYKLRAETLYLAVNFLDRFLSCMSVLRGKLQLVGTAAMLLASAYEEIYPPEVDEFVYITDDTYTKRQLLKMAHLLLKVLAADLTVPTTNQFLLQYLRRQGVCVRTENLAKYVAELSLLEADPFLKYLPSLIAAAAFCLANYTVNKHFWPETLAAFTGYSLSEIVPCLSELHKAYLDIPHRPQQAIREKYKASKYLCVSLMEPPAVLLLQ
Change,normalised enrichment score
K4A,0.174
F9L,-0.0789
T3A,0.588
K2A,0.517
F9A,0.0337
V1A,0.312
K12A,0.814

# Study 2
# Target: ABI1, truncated, D143A, DHFR fusion (Arabidopsis thaliana)
# Technique: DHFR PCA, deep sequencing
# Matrix: yeast
# Setting: methotrexate growth selection, single substitutions
# With: (+)-ABA 0.032 µM
# Relative to: wild-type fitted maximum
# Reading: higher = stronger binding
# Starting sequence: PYL1, truncated, DHFR fusion (Arabidopsis thaliana); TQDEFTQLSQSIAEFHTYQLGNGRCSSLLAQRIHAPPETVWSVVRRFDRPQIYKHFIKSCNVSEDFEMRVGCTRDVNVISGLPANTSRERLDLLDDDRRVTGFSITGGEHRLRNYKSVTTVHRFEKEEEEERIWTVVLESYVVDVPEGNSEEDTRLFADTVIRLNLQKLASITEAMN
Change,relative binding score [%]
G107I,-3.57
R24D,3.66
R111T,6.93
Q7F,21.7
S87D,3.88
I105M,6.26
L28V,45.6
L169V,-1.4
R88I,36.9
D97P,7.15
A35I,-6.44
G148H,1.03
K54R,15.1
R99W,67.8

# Study 3
# Target: RNA binding protein fox-1 homolog 2, RRM domain, GST-SBP tag (RBFOX2, Homo sapiens, UniProt O43251-10, residues 100-194)
# Technique: RNA Bind-n-Seq
# Molecule type: RNA
# Matrix: in vitro
# Concentration: 365 nM
# Setting: natural RNA segment, single round, ends assumed
# Relative to: no-protein control
# Reading: higher = stronger binding
# Construct (chain): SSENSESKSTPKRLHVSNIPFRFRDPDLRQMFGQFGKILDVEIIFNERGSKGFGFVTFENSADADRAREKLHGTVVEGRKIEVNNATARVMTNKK
Strand,RBNS enrichment (R)
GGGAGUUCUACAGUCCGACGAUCUGGUUUGUGUUCUUCUUCAUAUUCUAAAACCAUUCCAUUUCCAAGCACUUUCAGUCCAAUAGGUGUAGGAAAUAGCGCUGUUUUUGUUGUGUGUGCAGGGAGGGCAGUUUUGGAAUUCUCGGGUGCCAA,0.738
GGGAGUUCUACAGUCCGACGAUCGUUUUUAUGCCUUUGGCUAUUAUGAAAGAGGUUAGUGUGUUCCCUGCAAUAAACUUGUUCCUGAGAACUGUCCUCAUAGCGGGAGGGGUAUGCAGGGAAAACCCCGCCUAUGGAAUUCUCGGGUGCCAA,0.581
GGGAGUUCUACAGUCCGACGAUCAUUCAGAAGUCAAAGAAAUUACAUGUUUGGGAUUGAUGAGUCUUUAGGGCAGAAGCCAGCUGCAGAAGCCACUUUGAUGUUACCCAAGCCACAGCGCUAGAUAAGCCUCAUGGAAUUCUCGGGUGCCAA,0.301
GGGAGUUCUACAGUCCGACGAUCGGUGUCCUGACGGGAGCCAGGUCGGCCUGAGAGCUGUGCCGCUCCUCUGUCUUGUCAGUGGAGGUGCCUGGGUGGGGAGCAGGUCUCAGGCCUCUUGUCCUCUCCCCAGUUGGAAUUCUCGGGUGCCAA,0.48
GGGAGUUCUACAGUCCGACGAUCGUGAACUGGCCAUUCCUUUCGGUGCUGCUGUCCUUUUUGGGGGGGUUCCUGAUUUCUGUAUACAUGUAGCUUUGCCAGAUAUGUACUUAGUAAUAUAAACUGUAUUAAUAUGGAAUUCUCGGGUGCCAA,0.601
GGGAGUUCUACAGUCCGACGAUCUUCUCUGGAGCACCCUAUUUGCUUGGCUCUUUCUGGAAGUAGGUCUCACCCAUGAGGGACAACAGGUGACUCAGAAAGGCAGUGUCACAACUAGAACACUCUGCCUUGGUUGGAAUUCUCGGGUGCCAA,0.312
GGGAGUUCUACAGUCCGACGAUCCCAGAUCCAUGGCAAUGGUCUCCCCACAGACCGCAGGACUGAGCCUGGAGAGAGAAGUUGCUUGACGGAUGCCACUUGUCAGGACAGUAUGUGAGUGUCUGGAGACAGCAUGGAAUUCUCGGGUGCCAA,3
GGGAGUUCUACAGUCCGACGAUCUUCCAGUGAAUGUUUGACCUAGGGAAUGCAGCCACACUGGAAGCACCAAUAGAGGGCUAAGGUCAGACGGAGCAUGGCCCCACGAGCCCCAGAUUCCCUGAAAAUCCUGAUGGAAUUCUCGGGUGCCAA,6.21

# Single results of other studies
Substance,target,test,system,setting,scale,quantity,result
"PhoQ, residues 284 288 289 292 302 303 ASASEQ","PhoP, residues 12 14 15 18 19 GHCSL (Escherichia coli, UniProt P23836)","Sort-seq, item: YFP reporter",E. coli,"PhoQ-PhoP variant library, with: 10 µM Mg2+","relative to: high Mg2+ state, higher = stronger signaling",fold induction,11.9

# Repeated from above (study 2):
Change,relative binding score [%]
R88I,36.9
D97P,7.15
G107I,-3.57
